Measured values pooled from the literature.
Each numbered part is a random draw from the data of one study; scales do not carry over between parts. Changes are numbered by the printed parent chain.

Block 1
Target: ABI1, truncated, D143A, DHFR fusion (Arabidopsis thaliana)
Method: DHFR PCA, deep sequencing
Sample: yeast
Setting: methotrexate growth selection, single substitutions
Together with: (+)-ABA 2500 µM
Baseline: wild-type fitted maximum
Direction: higher = stronger binding
Starting sequence: PYL1, truncated, DHFR fusion (Arabidopsis thaliana); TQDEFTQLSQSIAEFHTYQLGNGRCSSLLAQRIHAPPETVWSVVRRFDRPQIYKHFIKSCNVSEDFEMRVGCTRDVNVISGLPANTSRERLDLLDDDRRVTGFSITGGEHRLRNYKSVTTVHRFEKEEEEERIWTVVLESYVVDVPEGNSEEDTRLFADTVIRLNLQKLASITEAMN; partner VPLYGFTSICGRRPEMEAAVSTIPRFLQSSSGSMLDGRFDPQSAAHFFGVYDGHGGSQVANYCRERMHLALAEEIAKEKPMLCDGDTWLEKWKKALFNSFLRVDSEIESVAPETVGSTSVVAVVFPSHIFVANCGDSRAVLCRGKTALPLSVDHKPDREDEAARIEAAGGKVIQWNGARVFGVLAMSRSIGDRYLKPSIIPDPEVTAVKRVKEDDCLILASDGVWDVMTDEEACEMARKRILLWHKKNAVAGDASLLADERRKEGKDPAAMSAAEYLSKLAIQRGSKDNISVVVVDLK
Variant	relative binding score [%]
V121A	66.5
D96G	84
A175Q	97.7
V44S	53.9
A30P	86.6
M176D	104
R49D	86.2
D65Q	97.3
V136R	61.6
V137G	1.86
T154A	92.9
S171Y	91
S80Y	85.8
R69E	90.7
R98W	87.3

Block 2
Target: Interferon regulatory factor 5, full length, phosphomimetic (IRF5, Homo sapiens, UniProt Q13568-2, residues 1-514, S451D/S453D/S456D/S462D)
Method: protein-binding microarray
Molecule type: double-stranded DNA, one strand shown
Sample: in vitro
Concentration: 940 nM top
Setting: 60-bp whole probe
Together with: salmon DNA 0.4 mg/ml
Baseline: random background probes
Direction: higher = stronger binding
Shared flanks, not repeated: GCCTAGCAC … GTCTTGATTCGCTTGACGCTGCTG
Sequence	fitted relative affinity [z-score]
TTAGGTTTCGGACTGGGCTAGTGCTAG	6.95
TTAGGTCTCCTACAGCTTTAGTGCTAG	-0.0852
GTTATCCTATATCTGAACCGGTGCTAG	0.115
TAAGGTTTCGGGTATCGGTTAGTGCTA	8.64
GACGGTTTCGGGTTGCGGGACGTGCTA	8.62
TTAGATATCAGTCTCGGTTAGTGCTAG	3.53
TTAGGACTGAACACTGGGTTAGTGCTA	-0.374
TCATGTGTGCATCTATCACTGTGCTAG	-0.169
GACTGTCTCGGACTGGGGACGTGCTAG	0.607
TGAAATCTCTTTCCTTACTTGTGCTAG	1.14
TTGGGACTGGGTATCGGTTAGTGCTAG	3.4
GACAGACTGGACACTGGGGACGTGCTA	-0.401
GACGGCCTGCTTCTCCTGACGTGCTAG	-0.291
TTAGATTTCGGGTTTCGATTAGTGCTA	5.74
GACGGTATCGTTTTCGGGACGTGCTAG	4.44
ATGACTCCCTCTCTGGCCAAGTGCTAG	0.214
TTAGAACTGATACTGGATTAGTGCTAG	0.115
GACGATTTCCGTATCGAGACGTGCTAG	1.36
GACGGAATCGACACTGGGGACGTGCTA	-0.211
TAAGGACTGCTACTGCTTTAGTGCTAG	-0.492
GACGATCTCAGTATTGAGACGTGCTAG	0.075

Block 3
Target: RING finger protein unkempt homolog, zinc fingers 1-6, SBP tag (UNK, Homo sapiens, UniProt Q9C0B0, residues 30-357)
Chain of UniProt Q9C0B0 (30-357, looked up): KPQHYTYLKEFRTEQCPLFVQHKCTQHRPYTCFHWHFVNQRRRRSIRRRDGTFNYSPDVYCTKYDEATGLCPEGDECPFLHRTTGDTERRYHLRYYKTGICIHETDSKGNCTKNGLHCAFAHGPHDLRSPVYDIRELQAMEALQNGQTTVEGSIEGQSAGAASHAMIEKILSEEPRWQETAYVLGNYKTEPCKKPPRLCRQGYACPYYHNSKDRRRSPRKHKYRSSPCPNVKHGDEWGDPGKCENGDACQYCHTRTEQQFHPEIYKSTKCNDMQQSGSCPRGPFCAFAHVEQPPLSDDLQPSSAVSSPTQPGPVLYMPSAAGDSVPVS
Method: RNA Bind-n-Seq
Molecule type: RNA
Sample: in vitro
Concentration: 100 nM
Setting: RNA with constant flanks, vertebrate orthologous sites, ends assumed
Baseline: input RNA pool
Direction: higher = stronger binding
Shared flanks, not repeated: GGGAGUUCUACAGUCCGACGAUC … CAACAGAGGAUUGAGCAUCA
Sequence	bound/input enrichment
UGUGAGCGUCUACAGACAGCUCACCAUUUUUGUCCUGUAUCUGUAAACACUUUUUGUUCUUAGUCUUUUUCUUGUAAAAUUGAUGUUCUUUAAAAUCGUUAAUGUAUAACAGGGCUUAUG	0.303 ratio
UGGGUGACUUUGGACGUCCGCUCAGCCAGGUUGCAGAAGCGGCUUAGCGUGUGUCCUAAUCUUCUCUCUGUGUAGGUAGGCCUGUGCCGCAAACAUGCUCCGCCAGAUCCUCGGGCAAGC	0.275 ratio
CAUGUCCCUGUUACUGUGACAUUUAAAGUAUCCACAGUGCUCACUUUUUCCAAAUGAUUCUAGUAAUUGCCUAGAAAUAUAUUUCUCUUACCUGUUAUUUAUCAAUUUCCCCCCAGUAUU	1.63 ratio
CUACAAUAAUGAAAACCUACAGGAAUUUUUUUUUUAUUUUUCAUUUUCCCCUUAGACAUAGUUAGUCUUUUUCCCCCCAGGCAGAUCAUUCUGAGUGUGCGAGUGUGUGUGCACAUGUUA	2.71 ratio
CCGUUCGCUCCUCCUGGGUGCGUGACCAAGGGCAAGGUGGCUGCCGGCACUGUGAGGGCUGCGUGGUGGUUUGGGGGCUGCGUCCAGGUCCUCAGAGCCUUGGAGCAGAAGUGACAGCCA	0.569 ratio
CAUAAUCACUCUAAUUGUAAUCUGAUAAAGUGUAACAUUGUGUAGCCUUUUUGUAUAAAAUAGACAAAUAGAAAUGGUCCAAUUAGUUUCCUUUUUAAUAUGCUUAAAAUAAGCAGGUGG	2.43 ratio
UAAUUCUAUGGUGGACGGGUCUGAAUUGAGGAAGGUUCGCUCCAACUCCAGAGUCUACCACCGUUACUUCCUUCUAGAUGCUGACAUGCAGUCACUGCGGUGGGAGCCGUCGAAAAAAGA	0.241 ratio
GAGUGCUUAAGCCGCCAACAGUUAGAAGAUGCUAUUUAUUUGUGUCUGUAAGUUUGUACAUAGCAAUGCCAGCCUUGUUGCUGAAUUUUUUAUUUGGGGGGGAUGAGUUUGAAUUUUGUU	1.77 ratio

Block 4
Target: CCNA1, cyclin fold, Cln2 fusion (human)
Method: yeast growth competition, sequencing
Sample: yeast
Setting: weak parent motif
Baseline: not given
Direction: higher = stronger binding
Starting sequence: RB1 docking peptide (human); PKPLKKLRFDIEG; partner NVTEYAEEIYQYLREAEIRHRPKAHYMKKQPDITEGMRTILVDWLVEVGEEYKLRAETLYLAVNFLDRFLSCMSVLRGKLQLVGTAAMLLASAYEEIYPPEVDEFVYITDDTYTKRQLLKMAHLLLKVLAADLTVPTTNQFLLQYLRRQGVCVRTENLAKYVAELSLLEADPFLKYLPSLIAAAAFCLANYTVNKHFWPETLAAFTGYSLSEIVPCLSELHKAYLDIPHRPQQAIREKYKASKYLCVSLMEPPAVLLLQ
Variant	normalised enrichment score
PKPLKKLRFDVEG [I11V]	0.217
PKLLKKLRFDIEG [P3L]	0.102
MKPLKKLRFDIEG [P1M]	-0.091
PKPLPKLRFDIEG [K5P]	0.278
PKPLKKVRFDIEG [L7V]	0.248
PKPMKKLRFDIEG [L4M]	0.256
PKILKKLRFDIEG [P3I]	0.0714
PKPLKKLRFDIEL [G13L]	0.349
PKPWKKLRFDIEG [L4W]	0.034
PKPLKTLRFDIEG [K6T]	0.251
PKPLKKLRFDAEG [I11A]	0.408
PSPLKKLRFDIEG [K2S]	0.281
PKPPKKLRFDIEG [L4P]	-0.176
CKPLKKLRFDIEG [P1C]	0.958
PKPLKKDRFDIEG [L7D]	-0.119
PKPLKYLRFDIEG [K6Y]	-0.23
PKHLKKLRFDIEG [P3H]	-0.0872
PKPLKKLRIDIEG [F9I]	0.146
PMPLKKLRFDIEG [K2M]	0.203
PKPLKWLRFDIEG [K6W]	0.233
PKPLTKLRFDIEG [K5T]	0.299
PKPLHKLRFDIEG [K5H]	0.356
PHPLKKLRFDIEG [K2H]	0.16
PGPLKKLRFDIEG [K2G]	0.0322

Block 5
Target: UBE2M UBC core domain (UniProt P61081)
Method: yeast two-hybrid
Sample: yeast
Setting: mostly zero background
Baseline: not given
Direction: higher = stronger interaction
B1: MID2 RING domain (UniProt Q9UJV3); chain KMETLESELTCPICLELFEDPLLLPCAHSLCFSCAHRILVSSCSSGESIEPITAFQCPTCRYVISLNHRGL
B2: BFAR RING domain (UniProt Q9NZS9); chain GPQISVSEFSCHCCYDILVNPTTLNCGHSFCRHCLALWWASSKKTECPECREKWEGFPKVS
B3: ARIH2 RING domain (UniProt O95376); chain HVPTSHPPHHCAVCMQFVRKENLLSLACQHQFCRSCWEQHCSVLVKDGVGVGVSCMAQDCPLRTPEDFVF
B4: RNF182 RING domain (UniProt Q8N6D2); chain AESQASDELECKICYNRYNLKQRKPKVLECCHRVCAKCLYKIIDFGDSPQGVIVCPFCRFETCLPDDEV
B5: ZNRF4 RING domain (UniProt Q8WWF5); chain VRTFTWHNDLCAICLDEYEEGDQLKILPCSHTYHCKCIDPWFSQAPRRSCPVCKQSVAATEDSF
B6: RNF6 RING domain (UniProt Q9Y252); chain NSIDSELGKICSVCISDYVTGNKLRQLPCMHEFHIHCIDRWLSENCTCPICRQPVLGSNIAN
B7: TRIM41 RING domain (UniProt Q8WV44); chain PVQTLQEEAVCAICLDYFTDPVSIGCGHNFCRVCVTQLWGGEDEEDRDELDREEEEEDGEEE
Residues (chain): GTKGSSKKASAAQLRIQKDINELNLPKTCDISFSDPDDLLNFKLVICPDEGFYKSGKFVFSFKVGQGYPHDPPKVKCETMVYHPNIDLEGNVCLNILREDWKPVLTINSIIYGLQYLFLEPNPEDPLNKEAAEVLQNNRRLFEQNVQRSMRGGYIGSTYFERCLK
Molecule	lacZ reporter activity
LEALSSDFLACKICLEQLRAPKTLPCLHTYCQDCLAQLADGGRVRCPECRETVPVPPEGV (TRIM56 RING domain (UniProt Q9BRZ2))	0
B1 (MID2 RING domain)	0
B2 (BFAR RING domain)	0
B3 (ARIH2 RING domain)	0
B4 (RNF182 RING domain)	0
B5 (ZNRF4 RING domain)	0
FDPPLESKYECPICLMALREAVQTPCGHRFCKACIIKSIRDAGHKCPVDNEILLENQLFP (TRAF6 RING domain (UniProt Q9Y4K3))	0
B6 (RNF6 RING domain)	0
B7 (TRIM41 RING domain)	0
DDVLTKDAGECVICLEELLQGDTIARLPCLCIYHKSCIDSWFEVNRSCPEHPAD (ZNRF1 RING domain (UniProt Q8ND25))	0

Block 6
Target: Hepatocyte nuclear factor 3-beta, forkhead domain (FOXA2, Homo sapiens, UniProt Q9Y261, residues 142-269)
Method: protein-binding microarray
Molecule type: double-stranded DNA, one strand shown
Sample: in vitro
Concentration: not given
Setting: k-mer, scored over probes, only values ≥0.25
Direction: higher = stronger binding
Residues (chain): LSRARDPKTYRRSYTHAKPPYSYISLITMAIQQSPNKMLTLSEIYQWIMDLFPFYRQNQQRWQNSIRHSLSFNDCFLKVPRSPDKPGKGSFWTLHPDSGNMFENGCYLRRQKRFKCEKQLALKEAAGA
Sequence	E-score
ACAGTATC	0.256
ATCAACAA	0.353
AACATAAA	0.29
ATGGTAAC	0.258
CTATTGTA	0.307
ACATATCG	0.318
GAACAAAA	0.256
GTCAAATA	0.371
GATTAATA	0.282
GTATACAC	0.277
GTTAGATA	0.318
AATTGATG	0.267
AACAAATT	0.269
AATGATAC	0.283
ATTATGCA	0.284
GAGTAACA	0.266
AGTGTAAT	0.268
ATATATCC	0.368

For quick reference, copied from above (block 6):
Sequence	E-score
CTATTGTA	0.307
ACATATCG	0.318
GAACAAAA	0.256
GTCAAATA	0.371
GATTAATA	0.282
GTATACAC	0.277
GTTAGATA	0.318
